Experimental data gathered from unrelated publications.
Protocols differ between the studies behind these lines. Numbers after ± are the reported error.

SMILES	test system	setting	how to read	remaining compound
CN(Cc1cc(C2CC2)on1)C(=O)c1cccc(-c2ccc(F)cc2)c1	human liver microsomes	2 µM, 5 min, pH 7.5, together with: 1-aminobenzotriazole	–	95.8%
C=C(NC(=O)c1csc(-c2nc3c(cc2O)-c2nc(cs2)C(=O)NC(C(C)O)C(=O)NC(=C(C)OC)c2nc(cs2)C(=O)NC2c4nc(cs4)C(=O)NC(COC(=O)c4c5c6c(cccc6n4O)COC(=O)C(OC4CC(C)(O)C(N(C)C)C(C)O4)C2OC5)c2nc-3cs2)n1)C(N)=O (stereo not shown)	CD-1 mouse liver microsomes	2 µM, 60 min, together with: NADPH	–	> 90%
CC(C)(C)[C@H](NC(=O)c1ccc(Oc2ccc(C(=O)N[C@H]3CCCC[C@@H]3O)cc2)cc1)C(=O)NCCN1CCCC1	human liver microsomes	1 µM, 60 min, without cofactors	–	92%
O=C(NC1CCC(F)(F)CC1)C(c1cncnc1)N(C(=O)C(F)Cl)c1ccc(-c2cncs2)cc1 (stereo not shown)	mouse liver microsomes	concentration not given, 0.1667 h, pH 7.4	–	80%
Cc1cc(C)nc(NC(=S)N2CCN(Cc3ccc(C(F)(F)F)cc3)CC2)c1	mouse liver microsomes	1 µM, 15 min	–	95.2 ± 4.3%
[2H]C(Cc1c[nH]c2ccccc12)(Nc1ccccc1)C(=O)O (stereo not shown)	human liver microsomes	1.5 µM, 180 min, pH 7.4, mean of replicates	reference: 0 min	75%
C[C@](C(=O)NC1CCC(F)(F)CC1)(c1cncnc1)N(C(=O)[C@H](F)Cl)c1ccc(OC(F)(F)F)cc1	human liver microsomes	concentration not given, 0.25 h, pH 7.4	–	29.5%
CCCCN1C(=O)c2cccc3c(N4CC[N+](C)(C5OC(C(=O)O)C(O)C(O)C5O)CC4)ccc(c23)C1=O (stereo not shown)	human liver microsomes	775.87 nM, 24 h, 4 °C	–	99.6%
O=C(NC1CCC(F)(F)CC1)C(c1cncnc1)N(C(=O)C(F)Cl)c1ccc(OC(F)(F)F)cc1 (stereo not shown)	mouse liver microsomes	concentration not given, 0.08333 h, pH 7.4	–	100%
CC(C)(C)[C@H](NC(=O)C(F)F)C(=O)N1C[C@H]2[C@@H]([C@H]1C(=O)N[C@H](C#N)C[C@@H]1CCCNC1=O)C2(C)C	human liver microsomes	60 min	–	99.4%

Excerpt of the above:
SMILES	test system	setting	how to read	remaining compound
C[C@](C(=O)NC1CCC(F)(F)CC1)(c1cncnc1)N(C(=O)[C@H](F)Cl)c1ccc(OC(F)(F)F)cc1	human liver microsomes	concentration not given, 0.25 h, pH 7.4	–	29.5%
